Experimental data pooled from the literature.
A part holds a random share of what one study measured.

Study 1
Target: Fragile X messenger ribonucleoprotein 1, C-terminal low-complexity region (Fmr1, Mus musculus, UniProt P35922)
Technique: RNA Bind-n-Seq
Molecule type: RNA
Medium: in vitro
Concentration: 200 nM
Setting: whole 134-nt RNA, ends assumed
Added: 150 mM KCl
Relative to: input library
Reading: higher = stronger binding
All sequences stand within: GGGAGUUCUACAGUCCGACGAUC … UGGAAUUCUCGGGUGUCAAGG
Oligonucleotide | log2 enrichment
ACCAUGCAGGUGGGCAUCUUUGGGAAGUGGGGCAAGGGGGGGAUAGGGAGGGGGGUAAUACUUUGGGAACAGGUGGUCCCAGGUCGUUUC | 0.686
CACAGACAACACGCACCCACACAGACACAGAGGGAAAAAGUUGGGAUGGGGACAGGGUGCACAGCAGGGCGGGGUAGGACCCCAGCCCCU | 0.458
AGUCCUGUGCUACACAUCGUAUGUACCGAAUCGGGAAAAAGGGUUUUUUUGGGAGGGAAAGUAUUAUGUUACGCCGUUCGGAUCUGCACU | 0.474
AGUCCUGUGCUACACAUCGUAUGUACCGAAUCGGGAAAAAGGGAAAAAAAGGGAGGGAAAGUAUUAUGUUACGCCGUUCGGAUCUGCACU | 0.423
UGGCCCUGGUGGCAUGCGGGGAGGAAGAGGUGGCCUCAUGGAUCGUGGUGGUCCCGGUGGAAUGGUCAGAGGUGGCCGUGGUGGAGACAG | 0.148
ACCAUGUAGGUGGGCAUCUUUGGGAAGUGGGGCAAGGGGGGGAUAGGGAGGGGGGUAACACUUUGGGAACAGGUGGUCCCAGGUCGUUUC | 0.732
ACCAUGCAGGUGGGCAUCUUUGGGAAGUGGGGCAAGGGGGGGAUAGGGAGGGGGGUAACACUUUCGGAACAGGUGGUCCCAGGUCGUUUC | 1.28
CUCAAGUCCUGUGCUACACAUCGUAUGUACCGAAUCGGGGCGGGGCGGGGCGGGAAAGUAUUAUGUUACGCCGUUCGGAUCUGCACUUCC | 1.25

Study 2
Target: Sal-like protein 4, full length isoform A (SALL4, Homo sapiens, UniProt Q9UJQ4, residues 1-1053)
UniProt Q9UJQ4, sequence (whole entry, looked up): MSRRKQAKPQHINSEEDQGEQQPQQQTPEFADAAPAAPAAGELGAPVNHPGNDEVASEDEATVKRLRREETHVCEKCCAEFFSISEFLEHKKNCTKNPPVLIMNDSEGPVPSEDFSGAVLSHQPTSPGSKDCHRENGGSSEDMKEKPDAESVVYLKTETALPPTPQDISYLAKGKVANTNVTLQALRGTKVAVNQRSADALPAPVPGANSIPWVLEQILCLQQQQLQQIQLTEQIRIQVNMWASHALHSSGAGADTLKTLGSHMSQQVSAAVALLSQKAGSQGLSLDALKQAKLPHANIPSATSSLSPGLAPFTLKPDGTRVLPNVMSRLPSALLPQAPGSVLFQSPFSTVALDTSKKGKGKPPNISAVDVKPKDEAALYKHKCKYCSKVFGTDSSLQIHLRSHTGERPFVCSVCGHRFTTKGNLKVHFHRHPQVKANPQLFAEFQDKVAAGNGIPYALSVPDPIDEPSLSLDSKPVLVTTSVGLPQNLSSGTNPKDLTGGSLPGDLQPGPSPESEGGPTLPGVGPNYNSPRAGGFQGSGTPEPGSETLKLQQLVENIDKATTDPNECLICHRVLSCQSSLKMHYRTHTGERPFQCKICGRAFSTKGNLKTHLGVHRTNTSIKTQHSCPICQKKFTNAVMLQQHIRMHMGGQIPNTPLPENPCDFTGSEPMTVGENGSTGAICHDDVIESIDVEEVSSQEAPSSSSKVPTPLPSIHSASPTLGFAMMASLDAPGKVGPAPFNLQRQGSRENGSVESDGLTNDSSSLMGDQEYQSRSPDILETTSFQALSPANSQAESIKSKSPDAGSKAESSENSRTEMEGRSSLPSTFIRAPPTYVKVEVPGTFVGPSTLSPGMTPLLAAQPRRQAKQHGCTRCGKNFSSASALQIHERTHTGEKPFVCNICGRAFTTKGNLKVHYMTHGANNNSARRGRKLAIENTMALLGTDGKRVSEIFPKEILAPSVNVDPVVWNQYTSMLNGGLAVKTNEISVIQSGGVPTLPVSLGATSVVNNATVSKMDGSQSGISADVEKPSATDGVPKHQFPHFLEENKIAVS
Technique: universal PBM
Molecule type: double-stranded DNA, one strand shown
Medium: in vitro
Concentration: 600 nM
Setting: 8-mer, flanks averaged, mean of replicates
Reading: higher = stronger binding
Oligonucleotide | E-score
ATTTTTGC | 0.343
GCAAATGA | 0.0994
ACATTAGC | 0.031
AATAGAGA | 0.211
ACAGTCTA | 0.0608
CATATGGA | 0.0954
ACATCACG | 0.042
ACTTTAAC | 0.196

Study 3
Target: RING finger protein unkempt homolog, zinc fingers 1-6, SBP tag (UNK, Homo sapiens, UniProt Q9C0B0, residues 30-357)
UniProt Q9C0B0, sequence (30-357, looked up): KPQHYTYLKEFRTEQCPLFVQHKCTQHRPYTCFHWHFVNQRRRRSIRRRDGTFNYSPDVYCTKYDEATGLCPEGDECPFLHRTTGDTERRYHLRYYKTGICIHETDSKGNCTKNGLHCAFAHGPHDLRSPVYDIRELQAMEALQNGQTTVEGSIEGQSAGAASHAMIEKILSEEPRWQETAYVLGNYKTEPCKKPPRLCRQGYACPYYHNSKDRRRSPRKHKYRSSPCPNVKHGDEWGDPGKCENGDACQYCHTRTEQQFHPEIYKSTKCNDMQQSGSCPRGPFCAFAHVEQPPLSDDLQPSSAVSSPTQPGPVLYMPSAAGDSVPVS
Technique: RNA Bind-n-Seq
Molecule type: RNA
Medium: in vitro
Concentration: 100 nM
Setting: RNA with constant flanks, vertebrate orthologous sites, ends assumed
Relative to: input RNA pool
Reading: higher = stronger binding
All sequences stand within: GGGAGUUCUACAGUCCGACGAUC … CAACAGAGGAUUGAGCAUCA
Oligonucleotide | bound/input enrichment [ratio]
GCCUGUUCUUUUGCUCUUCAGUGGAAGAGAUAAAUUGGGAAACACUGUCUUCUUUUUAUAGUUUGUUUCUAAAUUAUGACCAAAAAAAUAUUUUGCUAUUUCUUUCUUUAUAUAUGGACA | 0.658
AAAACCCCGAUUUUAGAUGUGAUAUCUAGGCUUUCAUUCCAGUUGUUUUUGUCUUUUGUUUAGAUACCACUUUUAAAUUCUUGCAUUUUAGUAAGAAAUCUAUCUUUUUAUGGAUGUUAG | 0.686
ACCCCGAUUUUAGAUGUGAUAUCUAGGCUUUCAUUCCAGUUUGUUUUGUCUUUUCUUGUUUAGAUAACCAACCUUUUAAAUUCUUGCAUUUUAGUAAGAAAGCUACCUUUUUAUGGAUGU | 0.703
UGCCCGUUUACCCCUAAAAUAGGACUUUUUUUUAGAAUUCUGUUGCCACUUCUAAAAUCUUAGCAAUAUUAGAAUAACACACCACUGAAAUAAAUUUUACUCAUUAUUUUACAAACCAAA | 1.8
AUCAUGGCCACUUUUACCUGCCUCAAUGAGGUAAUGUCUCCCCUGGCGUUUGGUUGGCGCUAGAGCCCAUCACACCUAAUAUGUCUUUCCACAUUUCAUUUCUUCACGCUUACAGUCAGU | 0.671
CCCUCAACUUGUUCUAGCUUGUGAUCCUUCAGAGUUGGAUCAGGCGUUAGUUCUAGGUACUAGAAAUGUUCAUUUCCCUAUCGCCAUUGAUCAGAGACAAAUAAUUAAAAACCAGAAAUA | 0.811
GUUUUCCUCUGAAGCAUGCACCUGCCGCCGUCACCAAAAGCAGAUCGCCUGUUUCCUUUUCAGCGUCACCCUCUUCCUUCCCCUUCCCCCUGCUUCCGAUGAGGGUUUCCGUUUGGCACC | 2.3
GUAUCUUGGUUUGGGUAAAGGGGAGGGAGGGGUAAGACGGUGUGGAAUCUCUAGAGUAUAAGGGGAGAUAGGGUGCAUAGUUAGUUCUAAAUGGGCCUUUAUGUUAAAAACCUCUGGGAG | 2.06

Study 4
Cell line: HEK-293T
Organism: VSV pseudotyped with SARS-CoV-2 spike
Concentration: 10 µM
Time: 16 h
SMILES | pseudovirus infection
CC(C)CN(C[C@@H](O)[C@H](Cc1ccccc1)NC(=O)O[C@H]1CO[C@H]2OCC[C@H]21)S(=O)(=O)c1ccc(N)cc1 | 84.9%
CN(C/C=C/c1ccccc1)Cc1cccc2ccccc12 | 35.3%
CNCCCC12CCC(c3ccccc31)c1ccccc12 | 30.5%
COc1cc(Cc2cnc(N)nc2N)cc(OC)c1OC | 81.3%

Study 5
Target: Replicase polyprotein 1ab, nsp13 helicase (rep, Severe acute respiratory syndrome coronavirus 2, UniProt P0DTD1)
Mode: inhibitor
Concentration: 20 µM
SMILES | inhibition [%]
Clc1ccc(Cn2c(CN3CCCC3)nc3ccccc32)cc1 | -1.06
Cc1ccc(F)cc1C(=O)Nc1ccc(C(=O)N2Cc3cccn3Cc3ccccc32)c(Cl)c1 | 13.4
N[C@@H](C(=O)O)c1ccc(C(=O)O)c(O)c1 (racemic) | 0.09
Cc1nnc(SCC2=C(C(=O)O)N3C(=O)[C@@H](NC(=O)Cn4cnnn4)[C@H]3SC2)s1 | 3.88
O=C(Nc1ccccc1)c1cc([N+](=O)[O-])ccc1Cl | -2.4
O=C(NCCCNc1nc(Nc2cccc(NC(=O)N3CCCC3)c2)ncc1I)c1cccs1 | 9.32
CCOc1ccccc1-n1c(C(C)N2CCN(C(=O)COc3ccc(Cl)cc3)CC2)nc2ccccc2c1=O (centres unmarked) | 0.49
Cn1cnc(N)c2ncnc1-2 | 6.61
OCc1ccc(-c2ccc(-c3ccc(CO)s3)o2)s1 | 58.1
CN1C2C=C(c3sccc3Br)CC1CC2 (centres unmarked) | 1.06
Cc1[nH]c(/C=C2\C(=O)Nc3ccc(F)cc32)c(C)c1C(=O)NC[C@H](O)CN1CCOCC1 | 9.08
CNC1CCCN(c2c(F)cc3c(=O)c(C(=O)O)cn(C4CC4)c3c2OC)C1 (centres unmarked) | 9.03
CC(C)(C(=O)NCC(F)(F)C(F)(F)F)C(=O)N[C@@H]1C(=O)Nc2ccccc2-c2ccccc21 | 5.77
CCCn1c(=O)[nH]c2nc(-c3ccc(S(=O)(=O)N4CCN(c5ccc(Cl)cc5)CC4)cc3)[nH]c2c1=O | 4.79
COc1c(O[C@@H]2O[C@H](CO)[C@@H](O)[C@H](O)[C@H]2O)cc2c(c1OC)-c1ccc(SC)c(=O)cc1[C@@H](NC(C)=O)CC2 | 5.44
CC1(C)C(=O)NC2=C1C(=O)C(=O)c1ccccc12 | 76.4
CCCCCCCCCCCCCCCC[N+](C)(C)Cc1ccccc1 | 48.6
CCn1c2ccccc2c2cc(CNC)ccc21 | 9.89
C[C@@H]([C@@H](O)c1ccc(O)cc1)N1CCC(O)(c2ccccc2)CC1 | 8.04
CN(Cc1cnc2nc(N)nc(N)c2n1)c1ccc(C(=O)N[C@@H](CCC(=O)O)C(=O)O)cc1 | 15.9
CN[C@@H](C)C(=O)N[C@H](C(=O)N1CCC[C@H]1C(=O)N[C@H]1c2ccccc2C[C@H]1OCC#CC#CCO[C@@H]1Cc2ccccc2[C@@H]1NC(=O)[C@@H]1CCCN1C(=O)[C@@H](NC(=O)[C@H](C)NC)C1CCCCC1)C1CCCCC1 | 12.9
CN(C)c1ccc(/C=C2\C(=O)Nc3ccccc32)cc1 | -5.24
COc1ccc2c(Oc3ccc(NC(=O)c4c(C)n(CC(C)(C)O)n(-c5ccccc5)c4=O)nc3)ccnc2c1 | 0.85
NCC(O)c1ccc(O)cc1 (centres unmarked) | -6.03
O=C(O)CCc1nc(-c2ccccc2)c(-c2ccccc2)o1 | 1.02

Study 6
Target: Replicase polyprotein 1ab, main protease (rep, Severe acute respiratory syndrome coronavirus 2, UniProt P0DTD1)
Observed: enzyme activity
Mode: inhibitor
Setting: no DTT
Compound | IC50 [µM]
c1ccc2sc(SNC3CCCCC3)nc2c1 | 0.8
CCN(CC)c1ccc(C(=C2C=CC(=[N+](CC)CC)C=C2)c2ccccc2)cc1 | 11.6
CO[C@@H]1[C@H](OC(=O)NC(=O)CCl)CC[C@]2(CO2)[C@H]1[C@@]1(C)O[C@@H]1CC=C(C)C | > 20

A few entries again (study 5):
SMILES | inhibition [%]
CC(C)(C(=O)NCC(F)(F)C(F)(F)F)C(=O)N[C@@H]1C(=O)Nc2ccccc2-c2ccccc21 | 5.77
CCCn1c(=O)[nH]c2nc(-c3ccc(S(=O)(=O)N4CCN(c5ccc(Cl)cc5)CC4)cc3)[nH]c2c1=O | 4.79
COc1c(O[C@@H]2O[C@H](CO)[C@@H](O)[C@H](O)[C@H]2O)cc2c(c1OC)-c1ccc(SC)c(=O)cc1[C@@H](NC(C)=O)CC2 | 5.44
CC1(C)C(=O)NC2=C1C(=O)C(=O)c1ccccc12 | 76.4
CCCCCCCCCCCCCCCC[N+](C)(C)Cc1ccccc1 | 48.6
CCn1c2ccccc2c2cc(CNC)ccc21 | 9.89
C[C@@H]([C@@H](O)c1ccc(O)cc1)N1CCC(O)(c2ccccc2)CC1 | 8.04
CN(Cc1cnc2nc(N)nc(N)c2n1)c1ccc(C(=O)N[C@@H](CCC(=O)O)C(=O)O)cc1 | 15.9
